Measurements gathered from unrelated publications.
Every numbered part comes from another study and shows a few of its results, in no order. Values joined by “and” are separate records of one study, mostly repeats; a detail may differ. Positions count from the first letter of the parent shown.
UniProt Q05397, sequence (whole entry, looked up): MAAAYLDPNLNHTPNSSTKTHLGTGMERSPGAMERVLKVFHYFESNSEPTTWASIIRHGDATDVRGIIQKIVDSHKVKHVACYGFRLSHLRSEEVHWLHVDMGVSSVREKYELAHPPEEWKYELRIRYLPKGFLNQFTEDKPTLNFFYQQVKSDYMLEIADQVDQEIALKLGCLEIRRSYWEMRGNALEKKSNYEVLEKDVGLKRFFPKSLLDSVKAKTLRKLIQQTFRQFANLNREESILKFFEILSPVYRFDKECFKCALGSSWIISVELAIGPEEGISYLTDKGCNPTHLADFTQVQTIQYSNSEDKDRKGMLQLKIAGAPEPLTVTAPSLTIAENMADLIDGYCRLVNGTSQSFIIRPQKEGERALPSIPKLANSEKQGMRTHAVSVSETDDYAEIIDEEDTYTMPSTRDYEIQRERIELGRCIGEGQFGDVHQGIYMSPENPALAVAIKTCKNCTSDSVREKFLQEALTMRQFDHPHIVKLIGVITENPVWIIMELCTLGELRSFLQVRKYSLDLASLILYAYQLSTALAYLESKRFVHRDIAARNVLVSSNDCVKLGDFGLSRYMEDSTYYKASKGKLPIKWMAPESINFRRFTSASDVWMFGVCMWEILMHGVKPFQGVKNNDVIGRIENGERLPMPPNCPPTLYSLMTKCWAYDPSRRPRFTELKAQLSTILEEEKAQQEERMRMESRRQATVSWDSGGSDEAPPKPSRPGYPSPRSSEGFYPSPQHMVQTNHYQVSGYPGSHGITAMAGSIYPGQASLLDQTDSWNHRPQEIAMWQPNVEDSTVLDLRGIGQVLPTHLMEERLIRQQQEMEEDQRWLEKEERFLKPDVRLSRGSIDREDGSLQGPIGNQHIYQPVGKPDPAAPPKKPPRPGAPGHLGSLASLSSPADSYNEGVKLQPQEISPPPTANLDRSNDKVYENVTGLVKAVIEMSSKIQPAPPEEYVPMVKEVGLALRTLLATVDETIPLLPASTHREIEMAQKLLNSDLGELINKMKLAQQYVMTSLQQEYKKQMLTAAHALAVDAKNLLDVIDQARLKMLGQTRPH
UniProt Q9UM73, sequence (whole entry, unmodified, looked up): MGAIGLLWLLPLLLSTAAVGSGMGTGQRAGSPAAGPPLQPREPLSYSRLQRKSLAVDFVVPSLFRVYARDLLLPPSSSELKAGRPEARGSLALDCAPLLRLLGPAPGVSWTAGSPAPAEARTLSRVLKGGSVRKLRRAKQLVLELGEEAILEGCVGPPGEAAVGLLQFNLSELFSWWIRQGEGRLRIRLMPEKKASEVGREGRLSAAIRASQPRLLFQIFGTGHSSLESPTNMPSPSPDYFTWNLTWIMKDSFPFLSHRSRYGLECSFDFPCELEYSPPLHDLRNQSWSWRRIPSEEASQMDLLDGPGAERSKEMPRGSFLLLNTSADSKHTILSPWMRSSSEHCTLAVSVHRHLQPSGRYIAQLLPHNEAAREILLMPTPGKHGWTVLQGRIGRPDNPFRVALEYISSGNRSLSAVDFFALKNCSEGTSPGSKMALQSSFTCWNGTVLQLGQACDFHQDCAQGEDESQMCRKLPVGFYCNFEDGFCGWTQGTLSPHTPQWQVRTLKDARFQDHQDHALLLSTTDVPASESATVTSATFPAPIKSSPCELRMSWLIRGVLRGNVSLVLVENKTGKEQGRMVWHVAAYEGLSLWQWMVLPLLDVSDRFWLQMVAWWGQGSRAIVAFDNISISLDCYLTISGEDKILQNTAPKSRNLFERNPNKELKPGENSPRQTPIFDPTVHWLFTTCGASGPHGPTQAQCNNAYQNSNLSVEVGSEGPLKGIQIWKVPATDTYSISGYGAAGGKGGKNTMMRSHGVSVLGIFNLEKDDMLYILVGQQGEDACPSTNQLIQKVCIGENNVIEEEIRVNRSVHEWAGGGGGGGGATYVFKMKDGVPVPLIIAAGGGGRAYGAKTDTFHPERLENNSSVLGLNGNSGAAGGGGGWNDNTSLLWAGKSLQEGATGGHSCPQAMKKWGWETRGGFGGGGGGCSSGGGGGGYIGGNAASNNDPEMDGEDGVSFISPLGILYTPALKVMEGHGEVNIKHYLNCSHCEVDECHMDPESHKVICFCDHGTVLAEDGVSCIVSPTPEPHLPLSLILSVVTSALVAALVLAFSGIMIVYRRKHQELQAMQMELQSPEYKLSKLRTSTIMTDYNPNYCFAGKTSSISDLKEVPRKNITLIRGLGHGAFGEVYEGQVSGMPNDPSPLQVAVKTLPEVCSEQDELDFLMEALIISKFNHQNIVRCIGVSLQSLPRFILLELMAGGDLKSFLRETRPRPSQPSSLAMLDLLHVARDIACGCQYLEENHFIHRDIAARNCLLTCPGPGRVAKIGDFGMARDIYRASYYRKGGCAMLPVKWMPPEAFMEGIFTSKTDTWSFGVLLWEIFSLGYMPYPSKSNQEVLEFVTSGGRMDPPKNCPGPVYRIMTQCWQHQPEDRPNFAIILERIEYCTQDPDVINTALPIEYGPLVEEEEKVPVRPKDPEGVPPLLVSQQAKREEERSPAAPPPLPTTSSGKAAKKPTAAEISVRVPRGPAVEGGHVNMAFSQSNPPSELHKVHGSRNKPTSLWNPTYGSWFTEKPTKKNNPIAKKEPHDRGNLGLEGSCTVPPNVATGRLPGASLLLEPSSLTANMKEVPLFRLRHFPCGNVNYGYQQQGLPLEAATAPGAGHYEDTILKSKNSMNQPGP
UniProt O15146, sequence (whole entry, looked up): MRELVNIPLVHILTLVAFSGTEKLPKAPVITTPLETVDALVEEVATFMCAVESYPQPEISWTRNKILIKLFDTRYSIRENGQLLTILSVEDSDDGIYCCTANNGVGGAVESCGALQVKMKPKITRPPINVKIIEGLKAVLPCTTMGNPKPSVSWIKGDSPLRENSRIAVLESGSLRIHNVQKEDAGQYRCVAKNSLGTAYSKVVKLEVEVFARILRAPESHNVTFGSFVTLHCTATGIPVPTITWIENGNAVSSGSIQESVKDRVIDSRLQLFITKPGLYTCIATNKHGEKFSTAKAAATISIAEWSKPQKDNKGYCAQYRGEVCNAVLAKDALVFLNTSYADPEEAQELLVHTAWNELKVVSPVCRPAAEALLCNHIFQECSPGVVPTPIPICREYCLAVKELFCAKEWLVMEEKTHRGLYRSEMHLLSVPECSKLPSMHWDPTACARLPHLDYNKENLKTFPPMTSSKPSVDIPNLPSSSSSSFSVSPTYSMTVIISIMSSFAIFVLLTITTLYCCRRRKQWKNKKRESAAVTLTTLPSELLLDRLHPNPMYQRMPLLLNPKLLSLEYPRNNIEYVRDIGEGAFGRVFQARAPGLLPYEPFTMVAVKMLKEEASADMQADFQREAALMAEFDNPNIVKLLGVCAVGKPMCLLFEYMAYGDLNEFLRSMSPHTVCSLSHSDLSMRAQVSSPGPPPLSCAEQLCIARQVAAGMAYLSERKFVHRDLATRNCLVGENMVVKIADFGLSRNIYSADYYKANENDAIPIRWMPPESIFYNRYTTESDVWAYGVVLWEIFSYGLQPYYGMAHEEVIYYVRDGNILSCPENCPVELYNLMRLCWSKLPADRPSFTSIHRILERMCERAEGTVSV
UniProt Q8IU85, sequence (whole entry, looked up): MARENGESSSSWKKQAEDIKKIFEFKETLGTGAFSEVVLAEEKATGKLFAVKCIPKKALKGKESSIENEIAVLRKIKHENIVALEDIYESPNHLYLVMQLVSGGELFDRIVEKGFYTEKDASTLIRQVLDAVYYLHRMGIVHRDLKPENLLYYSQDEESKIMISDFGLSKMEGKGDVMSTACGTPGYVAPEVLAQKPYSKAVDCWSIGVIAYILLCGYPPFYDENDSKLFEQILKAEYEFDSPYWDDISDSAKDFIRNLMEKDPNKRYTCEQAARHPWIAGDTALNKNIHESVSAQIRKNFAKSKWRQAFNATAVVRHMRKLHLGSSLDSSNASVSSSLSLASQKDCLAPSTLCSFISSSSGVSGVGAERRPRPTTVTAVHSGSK
UniProt O15075, sequence (whole entry, looked up): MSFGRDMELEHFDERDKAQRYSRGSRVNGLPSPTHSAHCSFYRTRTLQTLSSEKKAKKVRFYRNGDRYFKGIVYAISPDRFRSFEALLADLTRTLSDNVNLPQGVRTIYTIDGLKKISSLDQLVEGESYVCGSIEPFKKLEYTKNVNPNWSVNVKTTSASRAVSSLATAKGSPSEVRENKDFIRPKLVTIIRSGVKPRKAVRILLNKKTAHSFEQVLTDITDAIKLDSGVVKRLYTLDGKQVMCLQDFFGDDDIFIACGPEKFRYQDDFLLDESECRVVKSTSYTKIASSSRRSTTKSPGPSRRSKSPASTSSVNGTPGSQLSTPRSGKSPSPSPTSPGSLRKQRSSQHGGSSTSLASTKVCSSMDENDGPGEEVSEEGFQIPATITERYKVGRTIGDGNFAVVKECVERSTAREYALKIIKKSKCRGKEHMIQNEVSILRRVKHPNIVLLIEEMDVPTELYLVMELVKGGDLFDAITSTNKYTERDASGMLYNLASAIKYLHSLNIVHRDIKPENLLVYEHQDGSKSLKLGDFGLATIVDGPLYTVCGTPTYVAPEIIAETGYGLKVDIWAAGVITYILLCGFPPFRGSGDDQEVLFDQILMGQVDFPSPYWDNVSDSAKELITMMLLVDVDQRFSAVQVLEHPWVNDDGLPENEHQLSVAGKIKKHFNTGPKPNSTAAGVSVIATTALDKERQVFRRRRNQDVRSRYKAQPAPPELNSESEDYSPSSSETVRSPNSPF
UniProt Q9UEE5, sequence (whole entry, looked up): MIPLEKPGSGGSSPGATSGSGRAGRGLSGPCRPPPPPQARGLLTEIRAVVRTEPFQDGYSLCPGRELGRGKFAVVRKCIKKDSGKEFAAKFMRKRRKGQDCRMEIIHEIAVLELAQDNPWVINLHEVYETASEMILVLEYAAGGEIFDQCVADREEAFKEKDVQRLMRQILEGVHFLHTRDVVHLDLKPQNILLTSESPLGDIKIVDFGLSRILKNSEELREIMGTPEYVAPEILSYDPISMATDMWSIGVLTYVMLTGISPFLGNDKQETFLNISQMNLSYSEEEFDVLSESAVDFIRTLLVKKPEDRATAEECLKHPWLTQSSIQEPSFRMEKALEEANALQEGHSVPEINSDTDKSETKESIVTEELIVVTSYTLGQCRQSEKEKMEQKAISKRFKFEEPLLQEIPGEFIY

Set 1
SMILES: CNC(=O)c1ccc(-c2cnn3ccc(C(=O)N(C)c4ccc(Cl)c(C(=O)OC)c4)cc23)cc1
Organism: Cryptosporidium parvum
Method: time-kill
Strain: nanoluciferase-expressing
Relative to: DMSO
setting | luminescence
81 nM, 48 h | 11.8% and 10.3%
9 nM, 72 h | 15.3% and 30.6%
3 nM, 24 h | 86.5% and 110%
81 nM, 24 h | 32.4% and 27.8%
9 nM, 0 h | 91.4% and 98% and 90.3% and 103% and 99.4% and 97.4% and 90.1% and 91.2%

Set 2
Cell line: HaCaT
Tested at: 100 µM
Time: 18 h
Structure (SMILES) | viability [%]
N#Cc1ccccc1-c1cc(-c2ccccn2)cn(-c2ccccc2)c1=O | 82
CCOC(=O)c1cncn1[C@H](C)c1ccccc1 | 113
C=CC[C@]1(O)CC[C@H]2[C@@H]3CCC4=CCCC[C@@H]4[C@H]3CC[C@@]21C | 17.8

Set 3
SMILES: Cn1cncc1[C@@](O)(COc1ccc(C#N)cc1-c1ccc(OC(F)(F)F)cc1)c1ccc(C#N)cc1
Method: competition with immobilised ligand
Tested at: 1 µM
target | test | remaining binding [%]
Serine/threonine-protein kinase 17A (STK17A, Homo sapiens, UniProt Q9UEE5) | cell-free assay | 100
Casein kinase II subunit alpha (CSNK2A1, Homo sapiens, UniProt P68400) | cell-free assay | 100
Calcium/calmodulin-dependent protein kinase type 1B (PNCK, Homo sapiens, UniProt Q6P2M8) | cell-free assay | 100
Dual specificity mitogen-activated protein kinase kinase 7 (MAP2K7, Homo sapiens, UniProt O14733) | cell-free assay | 96
Ephrin type-B receptor 6 (EPHB6, Homo sapiens, UniProt O15197) | cell-free assay | 100
Calcium/calmodulin-dependent protein kinase type 1D (CAMK1D, Homo sapiens, UniProt Q8IU85) | cell-free assay | 100
Receptor-interacting serine/threonine-protein kinase 1 (RIPK1, Homo sapiens, UniProt Q13546) | cell-free assay | 90
eIF-2-alpha kinase GCN2, C-terminal kinase domain (EIF2AK4, Homo sapiens, UniProt Q9P2K8, S808G) | cell-free assay | 100
Serine/threonine-protein kinase MAK (MAK, Homo sapiens, UniProt P20794) | binding | 99
Phosphatidylinositol 4,5-bisphosphate 3-kinase catalytic subunit alpha isoform (PIK3CA, Homo sapiens, UniProt P42336, H1047Y) | cell-free assay | 100
Platelet-derived growth factor receptor alpha (PDGFRA, Homo sapiens, UniProt P16234) | cell-free assay | 100
Megakaryocyte-associated tyrosine-protein kinase (MATK, Homo sapiens, UniProt P42679) | cell-free assay | 100
Fibroblast growth factor receptor 2 (FGFR2, Homo sapiens, UniProt P21802) | cell-free assay | 100
Focal adhesion kinase 1 (PTK2, Homo sapiens, UniProt Q05397) | cell-free assay | 97
Receptor tyrosine-protein kinase erbB-3 (ERBB3, Homo sapiens, UniProt P21860) | cell-free assay | 89
ALK tyrosine kinase receptor (ALK, Homo sapiens, UniProt Q9UM73) | cell-free assay | 70
Mitotic checkpoint serine/threonine-protein kinase BUB1 (BUB1, Homo sapiens, UniProt O43683) | cell-free assay | 98
Serine/threonine-protein kinase DCLK1 (DCLK1, Homo sapiens, UniProt O15075) | cell-free assay | 87
SNF-related serine/threonine-protein kinase (SNRK, Homo sapiens, UniProt Q9NRH2) | cell-free assay | 87
Tyrosine-protein kinase Fgr (FGR, Homo sapiens, UniProt P09769) | cell-free assay | 100
Mitogen-activated protein kinase kinase kinase 14 (MAP3K14, Homo sapiens, UniProt Q99558) | cell-free assay | 92
Muscle, skeletal receptor tyrosine-protein kinase (MUSK, Homo sapiens, UniProt O15146) | cell-free assay | 100
ALK tyrosine kinase receptor (ALK, Homo sapiens, UniProt Q9UM73, L1196M) | cell-free assay | 100
SRSF protein kinase 2 (SRPK2, Homo sapiens, UniProt P78362) | cell-free assay | 55
Serine/threonine-protein kinase 32B (STK32B, Homo sapiens, UniProt Q9NY57) | cell-free assay | 97

Set 4
Cell line: mouse MPNST tumor cells
Method: high-content immunofluorescence imaging
Refers to: nuclear SOX9
Tested at: 10 µM
Time: 12 h
Setting: mean of 2 replicates
Relative to: DMSO control
Direction: higher = more nuclear SOX9
SMILES | nuclear SOX9 intensity
CC(=O)NC1CCSC1=O (racemic) | 74 % of DMSO
NCC(CC(=O)O)c1ccc(Cl)cc1 (racemic) | 93.6 % of DMSO
Cc1sc2c(c1C)C(c1ccc(Cl)cc1)=N[C@H](CC(=O)OC(C)(C)C)c1nnc(C)n1-2 | 134 % of DMSO
Cc1cccc(NC(=O)N[C@@H]2N=C(c3ccccc3)c3ccccc3N(CC(=O)c3ccccc3C)C2=O)c1 | 124 % of DMSO

Set 5
Target: tungstate, free oxyanion
Method: microfluidic competitive inhibition
Sample: in vitro, cell-free expressed
Tested at: not given
Setting: derived from inhibition constants, unchanged parent 2230 nM
Direction: lower = stronger binding
Starting sequence: PafA, mature enzyme, eGFP fusion (Elizabethkingia meningoseptica, UniProt Q9KJX5); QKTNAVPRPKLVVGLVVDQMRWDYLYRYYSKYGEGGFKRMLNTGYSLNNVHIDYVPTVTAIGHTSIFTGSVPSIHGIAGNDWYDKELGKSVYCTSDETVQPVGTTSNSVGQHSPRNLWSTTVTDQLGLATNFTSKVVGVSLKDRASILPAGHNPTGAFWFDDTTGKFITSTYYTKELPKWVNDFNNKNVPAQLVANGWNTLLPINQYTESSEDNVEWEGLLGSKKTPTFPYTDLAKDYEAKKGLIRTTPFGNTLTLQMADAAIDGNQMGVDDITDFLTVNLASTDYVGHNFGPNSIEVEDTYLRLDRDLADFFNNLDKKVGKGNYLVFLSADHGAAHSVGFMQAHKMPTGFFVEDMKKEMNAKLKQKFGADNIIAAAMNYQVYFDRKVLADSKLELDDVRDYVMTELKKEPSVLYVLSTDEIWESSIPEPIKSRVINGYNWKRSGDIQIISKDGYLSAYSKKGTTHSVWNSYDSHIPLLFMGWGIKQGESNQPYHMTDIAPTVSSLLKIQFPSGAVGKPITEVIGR
Substitution | oxyanion analog dissociation constant [nM]
L87V | 2340
M268G | 1240
L277G | 2460
D300V | 673
D96G | < 83.8
G33V | 2330
E216V | 2010
L128V | 1950

Set 6
SMILES: CCn1cnc2c(Nc3cccc(Cl)c3)nc(N[C@H]3CCCC[C@H]3N)nc21
Read-out: enzyme activity
Action: inhibitor
Tested at: 0.5 µM
Relative to: control
target | remaining activity [%]
Focal adhesion kinase 1 (PTK2, Homo sapiens, UniProt Q05397) | 83.1
Serine/threonine-protein kinase 4 (STK4, Homo sapiens, UniProt Q13043) | 91.3
Tyrosine-protein kinase SYK (SYK, Homo sapiens, UniProt P43405) | 98.4
Calcium/calmodulin-dependent protein kinase type II subunit alpha (CAMK2A, Homo sapiens, UniProt Q9UQM7) | 96.5
Serine/threonine-protein kinase 3 (STK3, Homo sapiens, UniProt Q13188) | 83.9

Single results of other studies
SMILES | target or system | test | system | setting | endpoint | result
Cc1cc(Cl)cc(C(=O)NCCC2=NOC(CS(C)(=O)=O)C2)c1NC(=O)c1cc(Br)nn1-c1ncccc1Cl (centres unmarked) | – | – | mouse, microsomes or S9 | 2 µM, 0.5 h | remaining compound | 14.7%
CCOc1ccc(Nc2c3c(nc4ccccc24)CCC3)cc1 | RAW264.7 | resazurin | – | 0.32 µM | cytotoxicity | -8% and -6%
CCOc1ccccc1N1CCN(Cc2cc(F)ccc2F)CC1 | – | – | mouse, microsomes or S9 | 2 µM, 0.5 h | remaining compound | 37.9%

Repeated from above (set 4):
SMILES | nuclear SOX9 intensity
CC(=O)NC1CCSC1=O (racemic) | 74 % of DMSO
NCC(CC(=O)O)c1ccc(Cl)cc1 (racemic) | 93.6 % of DMSO
Cc1sc2c(c1C)C(c1ccc(Cl)cc1)=N[C@H](CC(=O)OC(C)(C)C)c1nnc(C)n1-2 | 134 % of DMSO
Cc1cccc(NC(=O)N[C@@H]2N=C(c3ccccc3)c3ccccc3N(CC(=O)c3ccccc3C)C2=O)c1 | 124 % of DMSO
